Results of several laboratories.
Lines come from different studies, so protocols differ. Values joined by “and” are separate records of one study, mostly repeats; a detail may differ. Numbers after ± are the reported error.
Chain of UniProt Q16539 (whole entry, looked up): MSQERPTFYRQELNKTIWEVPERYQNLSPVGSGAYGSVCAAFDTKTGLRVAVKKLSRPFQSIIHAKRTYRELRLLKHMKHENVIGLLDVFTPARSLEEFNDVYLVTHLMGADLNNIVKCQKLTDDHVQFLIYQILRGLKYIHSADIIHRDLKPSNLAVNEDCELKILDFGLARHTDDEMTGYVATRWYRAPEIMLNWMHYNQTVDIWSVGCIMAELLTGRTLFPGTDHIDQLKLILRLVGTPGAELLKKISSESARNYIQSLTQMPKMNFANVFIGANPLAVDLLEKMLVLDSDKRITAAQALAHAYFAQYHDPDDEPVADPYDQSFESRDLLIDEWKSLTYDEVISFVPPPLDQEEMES
Chain of UniProt Q96KB5 (whole entry, looked up): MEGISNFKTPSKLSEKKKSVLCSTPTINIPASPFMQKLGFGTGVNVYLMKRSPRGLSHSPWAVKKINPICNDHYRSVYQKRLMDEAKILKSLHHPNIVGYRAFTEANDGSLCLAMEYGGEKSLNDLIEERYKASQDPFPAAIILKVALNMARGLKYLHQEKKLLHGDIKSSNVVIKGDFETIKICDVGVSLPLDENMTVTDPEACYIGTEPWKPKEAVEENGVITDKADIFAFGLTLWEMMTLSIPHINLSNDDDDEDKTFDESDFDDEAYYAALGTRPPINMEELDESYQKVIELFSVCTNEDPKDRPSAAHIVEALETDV
Chain of UniProt Q9HB29 (whole entry, looked up): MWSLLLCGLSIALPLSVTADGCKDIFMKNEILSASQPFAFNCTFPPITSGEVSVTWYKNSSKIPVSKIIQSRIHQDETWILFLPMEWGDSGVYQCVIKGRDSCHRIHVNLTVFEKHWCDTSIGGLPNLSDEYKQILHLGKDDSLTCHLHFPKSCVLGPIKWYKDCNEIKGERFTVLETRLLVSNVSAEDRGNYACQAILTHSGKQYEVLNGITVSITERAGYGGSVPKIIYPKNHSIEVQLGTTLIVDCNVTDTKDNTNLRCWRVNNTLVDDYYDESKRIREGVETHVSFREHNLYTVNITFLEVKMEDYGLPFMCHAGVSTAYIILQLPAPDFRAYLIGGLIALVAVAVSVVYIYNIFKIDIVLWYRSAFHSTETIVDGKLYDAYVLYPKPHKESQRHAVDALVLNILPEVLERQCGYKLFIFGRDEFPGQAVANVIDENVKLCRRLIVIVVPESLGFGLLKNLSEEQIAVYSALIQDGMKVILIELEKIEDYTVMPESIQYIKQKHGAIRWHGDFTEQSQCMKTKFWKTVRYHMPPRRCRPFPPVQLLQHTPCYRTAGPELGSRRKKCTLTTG
Chain of UniProt O75417 (whole entry, looked up): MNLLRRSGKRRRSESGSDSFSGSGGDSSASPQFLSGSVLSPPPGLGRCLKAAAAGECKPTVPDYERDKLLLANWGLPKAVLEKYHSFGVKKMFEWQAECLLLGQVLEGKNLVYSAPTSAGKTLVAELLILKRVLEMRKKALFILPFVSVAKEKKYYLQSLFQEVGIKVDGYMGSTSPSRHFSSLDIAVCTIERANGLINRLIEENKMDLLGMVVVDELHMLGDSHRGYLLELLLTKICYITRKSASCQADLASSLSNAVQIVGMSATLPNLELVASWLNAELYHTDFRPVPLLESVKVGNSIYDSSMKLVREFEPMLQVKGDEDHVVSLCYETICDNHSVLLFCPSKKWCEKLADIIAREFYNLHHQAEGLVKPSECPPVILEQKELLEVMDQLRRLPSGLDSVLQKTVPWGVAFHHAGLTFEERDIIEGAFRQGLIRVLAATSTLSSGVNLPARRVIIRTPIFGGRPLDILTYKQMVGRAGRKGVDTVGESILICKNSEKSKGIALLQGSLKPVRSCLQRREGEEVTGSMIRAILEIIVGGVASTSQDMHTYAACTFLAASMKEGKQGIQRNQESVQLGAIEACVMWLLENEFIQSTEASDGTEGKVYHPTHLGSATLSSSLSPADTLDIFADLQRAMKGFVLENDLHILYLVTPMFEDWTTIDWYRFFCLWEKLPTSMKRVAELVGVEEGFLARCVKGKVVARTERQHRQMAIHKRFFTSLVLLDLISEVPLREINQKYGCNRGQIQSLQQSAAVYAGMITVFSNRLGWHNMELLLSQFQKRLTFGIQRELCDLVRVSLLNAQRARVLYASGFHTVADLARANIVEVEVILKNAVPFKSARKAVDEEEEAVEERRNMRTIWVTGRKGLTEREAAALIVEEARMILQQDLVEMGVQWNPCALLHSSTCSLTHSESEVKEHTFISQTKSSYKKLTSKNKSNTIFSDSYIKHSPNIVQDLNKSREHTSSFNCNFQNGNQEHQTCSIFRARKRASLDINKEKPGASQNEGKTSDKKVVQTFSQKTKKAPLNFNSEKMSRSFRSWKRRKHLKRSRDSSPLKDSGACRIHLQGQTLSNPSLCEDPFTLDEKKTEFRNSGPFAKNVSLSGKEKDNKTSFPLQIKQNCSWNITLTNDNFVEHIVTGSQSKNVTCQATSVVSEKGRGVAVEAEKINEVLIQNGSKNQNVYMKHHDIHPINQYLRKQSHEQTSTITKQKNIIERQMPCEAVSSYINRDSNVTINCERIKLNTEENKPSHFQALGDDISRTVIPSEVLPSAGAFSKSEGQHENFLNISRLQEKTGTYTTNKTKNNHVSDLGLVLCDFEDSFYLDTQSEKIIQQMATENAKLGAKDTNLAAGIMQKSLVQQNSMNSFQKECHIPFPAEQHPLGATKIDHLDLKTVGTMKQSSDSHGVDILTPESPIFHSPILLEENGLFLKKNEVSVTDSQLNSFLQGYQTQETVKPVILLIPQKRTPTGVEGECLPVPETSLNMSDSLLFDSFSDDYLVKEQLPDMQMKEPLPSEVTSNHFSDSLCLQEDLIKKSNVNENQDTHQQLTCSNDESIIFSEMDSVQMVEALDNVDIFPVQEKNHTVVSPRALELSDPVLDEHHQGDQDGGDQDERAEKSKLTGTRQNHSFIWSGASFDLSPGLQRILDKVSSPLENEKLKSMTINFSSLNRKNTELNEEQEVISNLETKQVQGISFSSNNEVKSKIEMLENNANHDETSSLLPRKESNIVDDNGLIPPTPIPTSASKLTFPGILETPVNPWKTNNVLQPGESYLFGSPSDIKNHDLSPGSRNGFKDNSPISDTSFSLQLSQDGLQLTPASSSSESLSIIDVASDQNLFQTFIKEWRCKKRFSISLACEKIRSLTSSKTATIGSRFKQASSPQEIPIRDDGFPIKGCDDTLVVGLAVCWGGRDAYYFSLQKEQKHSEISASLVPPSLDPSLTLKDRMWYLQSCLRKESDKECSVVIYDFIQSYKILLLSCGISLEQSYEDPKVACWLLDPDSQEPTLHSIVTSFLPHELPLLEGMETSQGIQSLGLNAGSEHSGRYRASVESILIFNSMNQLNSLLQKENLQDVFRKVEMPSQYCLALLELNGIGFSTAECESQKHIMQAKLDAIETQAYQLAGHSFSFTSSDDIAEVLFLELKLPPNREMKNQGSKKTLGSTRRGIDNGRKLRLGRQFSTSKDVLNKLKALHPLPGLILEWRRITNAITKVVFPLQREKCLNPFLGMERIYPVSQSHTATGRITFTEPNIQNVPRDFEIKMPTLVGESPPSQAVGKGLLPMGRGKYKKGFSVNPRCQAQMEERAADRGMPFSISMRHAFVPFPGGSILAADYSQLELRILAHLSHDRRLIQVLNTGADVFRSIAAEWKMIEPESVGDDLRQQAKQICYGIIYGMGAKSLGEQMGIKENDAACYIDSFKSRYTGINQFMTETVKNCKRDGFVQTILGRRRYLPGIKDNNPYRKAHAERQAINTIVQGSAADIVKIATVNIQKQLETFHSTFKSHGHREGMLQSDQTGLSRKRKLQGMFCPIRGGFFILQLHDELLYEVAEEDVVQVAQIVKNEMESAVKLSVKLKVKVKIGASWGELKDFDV
Chain of UniProt P08254 (whole entry, looked up): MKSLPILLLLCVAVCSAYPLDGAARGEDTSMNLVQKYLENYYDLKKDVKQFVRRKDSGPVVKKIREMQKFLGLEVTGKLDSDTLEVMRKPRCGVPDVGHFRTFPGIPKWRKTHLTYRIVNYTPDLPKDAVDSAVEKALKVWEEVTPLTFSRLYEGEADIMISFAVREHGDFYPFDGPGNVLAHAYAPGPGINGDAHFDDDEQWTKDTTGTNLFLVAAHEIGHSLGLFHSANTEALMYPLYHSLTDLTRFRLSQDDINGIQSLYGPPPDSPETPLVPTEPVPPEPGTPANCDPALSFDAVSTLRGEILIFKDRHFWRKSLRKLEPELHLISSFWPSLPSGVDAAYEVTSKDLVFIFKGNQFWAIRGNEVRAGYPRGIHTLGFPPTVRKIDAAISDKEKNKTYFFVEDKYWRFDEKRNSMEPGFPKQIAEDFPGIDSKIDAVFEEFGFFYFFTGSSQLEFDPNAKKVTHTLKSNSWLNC
Chain of UniProt P45983 (whole entry, looked up): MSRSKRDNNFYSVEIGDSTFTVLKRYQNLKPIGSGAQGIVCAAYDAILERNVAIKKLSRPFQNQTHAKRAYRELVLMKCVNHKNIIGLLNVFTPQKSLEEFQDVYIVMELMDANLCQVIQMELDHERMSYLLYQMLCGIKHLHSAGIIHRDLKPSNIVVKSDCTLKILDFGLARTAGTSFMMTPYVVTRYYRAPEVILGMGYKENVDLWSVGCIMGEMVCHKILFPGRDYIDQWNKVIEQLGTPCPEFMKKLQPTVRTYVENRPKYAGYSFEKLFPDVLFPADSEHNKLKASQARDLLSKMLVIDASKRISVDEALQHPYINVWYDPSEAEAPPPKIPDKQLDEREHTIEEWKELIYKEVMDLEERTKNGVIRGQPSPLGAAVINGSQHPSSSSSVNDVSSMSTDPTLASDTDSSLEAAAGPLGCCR
Chain of UniProt P54292 (whole entry, looked up): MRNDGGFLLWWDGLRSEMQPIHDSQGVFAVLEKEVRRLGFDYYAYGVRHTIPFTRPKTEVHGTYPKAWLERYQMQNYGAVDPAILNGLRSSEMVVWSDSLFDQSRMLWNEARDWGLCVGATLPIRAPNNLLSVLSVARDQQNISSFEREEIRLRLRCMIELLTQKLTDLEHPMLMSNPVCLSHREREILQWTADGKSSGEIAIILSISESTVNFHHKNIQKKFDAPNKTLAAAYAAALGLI

| Structure (SMILES) | tested on | assay | test system | setting | scale | endpoint | result |
| --- | --- | --- | --- | --- | --- | --- | --- |
| COC(=O)[C@@]1(C)C=C(C(=O)Nc2cccc(C(=O)Nc3ccc(Nc4nccc(-c5cccnc5)n4)c(C)c3)c2)C(=O)CC1 | MAPK14 (Homo sapiens, UniProt Q16539) | enzyme activity, inhibitor | – | 1.646 µM, unit not given | baseline: vehicle | remaining activity | 0.917 and 1.16 and 0.96 |
| COc1ccccc1-c1ccncc1C(=O)Nc1nnc(OCc2ccc(Cl)cc2)s1 | DNA polymerase theta, helicase domain (POLQ, Homo sapiens, UniProt O75417) | ATPase activity, ADP-Glo | – | 0.24 µM, with: ATP 100 µM | – | remaining activity | 30% |
| C[C@](C(=O)NC1CCOCC1)(c1cncnc1)N(C(=O)[C@H](F)Cl)c1ccc(OC(F)(F)Cl)cc1 | Stromelysin-1 (MMP3, Homo sapiens, UniProt P08254) | enzyme activity, inhibitor | – | 10 µM | – | remaining activity | 100% |
| CN(Cc1cc(C2CC2)on1)C(=O)c1cccc(-c2ccc3c(c2)CCO3)c1 | Acetyl-CoA synthetase (Cryptococcus neoformans, UniProt J9VFT1) | enzyme activity, inhibitor, coupled pyrophosphate | – | 31.3 µM | – | remaining activity | -3.04% and 3.04% |
| CCCC(O)c1nn[nH]c1-c1ccc(O)c(OC)c1 (stereo not drawn) | rhlR (Pseudomonas aeruginosa, UniProt P54292) | reporter gene, inhibitor, quorum sensing reporter strain | – | 10 µM, 1.5 h | baseline: DMSO | remaining activity | 96% |
| CC1CN(CCOCCSc2ccc(Cl)cc2)CC(C)O1.O=C(O)C(=O)O (stereo not drawn) | Trypanosoma cruzi | reporter mRNA translation, inhibitor, refers to: Renilla luciferase mRNA | cell-free extract | concentration not given, test 2 | baseline: positive over negative control | translation activity | 113% and 107% |
| O=C=[N][Ru-4]123([n]4c5ccc(O)cc5c5c6c(c7cc(F)c[n+]1c7c54)C(=O)NC6=O)[S+]1CC[S+]2CC[S+]3CC1 (stereo not drawn) | CK1 (yeast) | kinase activity, inhibitor | – | 100 nM, with: 10 µM ATP | – | remaining activity | 14% |
| COc1ccc(NC(=O)Nc2ccc3c(c2)C(=O)N(C(C)CO)CC(C)C(CN(C)Cc2ccc4c(c2)OCO4)O3)cc1 (stereo not drawn) | CK1 (yeast) | kinase activity | – | 0.03 µM | baseline: control | remaining activity | 122% |
| Nc1ncc(-c2cc(-c3cnn(CC(F)(F)F)c3)ncc2F)nc1C(=O)NC1CNCC(F)C1 (stereo not drawn) | ERN2 (Homo sapiens, UniProt Q76MJ5) | enzyme activity | – | 1 µM | baseline: DMSO control | remaining activity | 95.8% |
| CC(C)N=c1cc2n(-c3ccc(Cl)cc3)c3ccccc3nc-2cc1Nc1ccc(Cl)cc1 | Trypanosoma cruzi | reporter mRNA translation, inhibitor, refers to: Renilla luciferase mRNA | cell-free extract | concentration not given | baseline: positive over negative control | translation activity | 98.4% and 145% |
| CC(C)[C@@H]1NC(=O)[C@H](Cc2ccccc2)NC(=O)CSC[C@@H](C(N)=O)NC(=O)[C@H](CCC(=O)O)NC(=O)[C@H](CO)NC(=O)[C@H](Cc2c[nH]c3cccc(Cl)c23)NC(=O)[C@H](C2CCCCC2)NC(=O)[C@H](C(C)C)NC(=O)[C@H](Cc2ccc(O)cc2)NC(=O)[C@H](CC(=O)O)NC(=O)[C@H](Cc2c[nH]c3ccccc23)NC(=O)[C@H](Cc2ccc(N)nc2)NC(=O)[C@H](Cc2c[nH]c3ccc(Cl)cc23)NC(=O)[C@H](CCC(=O)O)NC1=O | Interleukin-1 receptor-like 2 (IL1RL2, Homo sapiens, UniProt Q9HB29) | reporter gene (SEAP), inhibitor, HEK-Blue IL-36R reporter | HEK-Blue IL-36R cells | 0.0017 µM, 6 h, with: IL-36β 0.1 ng/mL | – | remaining activity | 94.8% |
| CN1C[C@@H](c2c[nH]c3cc(Br)ccc23)NC[C@@H]1c1c[nH]c2cc(Br)ccc12 | Cyclin-dependent kinase 6, with cyclin D2 (CDK6, Homo sapiens, UniProt Q00534) | enzyme activity, inhibitor | – | 10 µM | – | remaining activity | 96% |
| COC(=O)[C@@]1(C(C)C)C=C(C(=O)Nc2cccc(C(=O)Nc3ccc(Nc4nccc(-c5cccnc5)n4)c(C)c3)c2)C(=O)CC1 | MAPK8 (Homo sapiens, UniProt P45983) | kinase activity, inhibitor | – | 14.81 µM, unit not given, with: 10 mM glutathione | baseline: no inhibitor | remaining activity | 0.146 |
| N#Cc1cnc2sc(C(=O)O)cc2c1N1CCc2[nH]nc(C(=O)N[C@@H](CC(=O)NCCOCCN3CCOCC3)c3cccc(Br)c3)c2C1 | IL1R1 (Homo sapiens, UniProt P14778) | IL-8 release, antagonist | A-431 | 32 µM, 18 h, with: IL-1β 5 ng/mL | baseline: untreated | remaining activity | 83% |
| COCC12C(=O)NC3C4(C(OC)CC1O)C1CC5(O)C(OC)C(O)C(OC(C)=O)(C1C5OC(=O)c1ccccc1)C3(O)C(OC)C24 (stereo not drawn) | PBK (Homo sapiens, UniProt Q96KB5) | kinase activity, inhibitor, ProQinase kinase profiling | – | 25 µM | baseline: control | remaining activity | 104% and 94% |
| COC(=O)c1ccc2c(c1)nc(NC(=O)c1ccccc1)n2CCCc1ccccc1 | HDAC6 (Homo sapiens, UniProt Q9UBN7) | enzyme activity, inhibitor | – | 10 µM | – | remaining activity | 84% |
| Cn1cnnc1Sc1c2c(c(C#N)c3nc4ccccc4n13)CCCC2 | P4HB (Homo sapiens, UniProt P07237) | insulin turbidity | – | 100 µM | – | remaining activity | 89.6 ± 7.1% |
| COC(=O)c1cc2cc3c(cc2oc1=O)N(CC(=O)NC(Cc1cccc(Cl)c1)C(=O)NCC=CS(=O)(=O)c1ccccc1)CCC3 (stereo not drawn) | Cathepsin K (CTSK, Homo sapiens, UniProt P43235) | enzyme activity, inhibitor, fluorescence | – | 5 µM | – | remaining activity | 43% |

For quick reference, copied from above:
| Structure (SMILES) | tested on | assay | test system | setting | scale | endpoint | result |
| --- | --- | --- | --- | --- | --- | --- | --- |
| C[C@](C(=O)NC1CCOCC1)(c1cncnc1)N(C(=O)[C@H](F)Cl)c1ccc(OC(F)(F)Cl)cc1 | Stromelysin-1 (MMP3, Homo sapiens, UniProt P08254) | enzyme activity, inhibitor | – | 10 µM | – | remaining activity | 100% |
